# Measured values of several laboratories.
# Several values in a cell are separate wells, animals, samples, runs or records. ± marks the error that the study gave.
SMILES,cell line,test,setting,IC50
C[C@@H]1O[C@@H](OC(=O)/C=C/c2ccc(O)c(O)c2)[C@H](OC(=O)/C=C/c2ccc(O)c(O)c2)[C@H](O)[C@H]1O,MCF-10A,"cytotoxicity, MTT",48 h,25.8 ± 1.28 µM
O=C(/C=C/c1ccccc1)Oc1ccc2c(c1)O/C(=C\C=C\c1ccccc1)C2=O,LO2,"cytotoxicity, MTT",72 h,25.1 µM
Cc1[nH][n+]([Pd-2]([Cl])([Cl])[n+]2[nH]c(C)c(CSCc3ccccc3)c2C)c(C)c1CSCc1ccccc1,U-937,"cytotoxicity, 7-AAD flow cytometry",24 h,0.6 ± 0.04 µM
CC1=[N+]2N=C(c3ccccc3)[O][Pd-2]2([Cl])[O+]=C2Oc3ccccc3C=C21 (stereo not shown),WI-38,"cytotoxicity, MTT",48 h,45.2 ± 2.7 µM
COc1c(C)c(OC(=O)c2ccccc2)c(C)c(OC(=O)c2ccccc2)c1C(=O)/C=C/c1ccccc1,CL normal liver cells,"cytotoxicity, sulforhodamine B",72 h,25.3 µM
C[C@H]1C(O)O[C@@H]2O[C@@]3(C)CC[C@H]4[C@H](C)CCC1[C@@]24OO3 (stereo partly shown),CEM/ADR5000 (multidrug-resistant),"cell viability, XTT",10% fetal calf serum,1.84 ± 0.31 µM
COc1c(C)c(O)c(C(=O)C=Cc2ccccc2)c(OC)c1C,CL normal liver cells,"cytotoxicity, sulforhodamine B",72 h,25.4 µM
C[C@H]1C(NCCS)O[C@@H]2O[C@@]3(C)CC[C@H]4[C@H](C)CCC1[C@@]24OO3 (stereo partly shown),CEM/ADR5000 (multidrug-resistant),"cell viability, XTT",10% fetal calf serum,3.34 ± 0.64 µM
Cc1[nH][n+]([Pd-2]([Br])([Br])[n+]2[nH]c(C)c(CSCc3ccccc3)c2C)c(C)c1CSCc1ccccc1,U-937,"cytotoxicity, 7-AAD flow cytometry",24 h,0.71 ± 0.04 µM
O=C(Cc1ccccc1)Nc1nc2ccccc2n1Cc1ccccc1,MDA-MB-231,"cell growth or viability, SRB",,10.8 µM and ~10 µM
O=C(O)c1ccccc1Nc1ccc(Oc2ccccc2)cc1,MDA-kb2,cytotoxicity,20 h,181 ± 99.4 µM
N.N.O=C(CCCc1ccccc1)[O][Pt]([Cl])([Cl])[O]C(=O)CCCc1ccccc1,HCT-116 p53+/+,cytotoxicity,72 h,0.22 ± 0.03 µM
Cc1ccc(C2=NN(C3=NC(=O)C(=Cc4ccc(O)cc4)S3)C(c3ccc(F)cc3)C2)cc1 (stereo not shown),MCF-10A,cell growth or viability,,48.2 µM
CCCCn1cc(C(=O)O)c(=O)c2cc(F)c3[nH]nnc3c21,HCT-116,"cell growth, SRB",72 h,74.8 ± 1.2 µg/mL
COc1ccc(C=C2SC(N3N=C(c4cccs4)CC3c3ccc(F)cc3)=NC2=O)cc1 (stereo not shown),MCF-10A,cell growth or viability,,39.7 µM
CCCCCCCC(=O)Oc1c(C)c(OC)c2c(c1C)OC(=O)[C@@H](CCCCCC)[C@]2(O)/C=C/c1ccccc1 (racemic),CL normal liver cells,"cytotoxicity, sulforhodamine B",72 h,35.9 µM
